Published values of several laboratories.
“And” joins repeats or separate records; there may be more than shown. ± marks the error that the study gave.

The accuracy of CNC(=O)c1cc(Oc2ccc(NC(=O)Nc3ccc(Cl)c(C(F)(F)F)c3)c(F)c2)cc[n+]1[O-] is reported as 93.5% (long-term stability; mouse plasma; 750 ng/mL, 6 months, -80 °C).
COc1ncc(-c2nc3c(n2C(C)C)[C@H](c2ccc(Cl)cc2)N(c2cc(Cl)cn(C)c2=O)C3=O)c(OC)n1 has a Cmax of 14.9 ng/mL (LC-MS/MS; human, plasma; oral, 1 mg, cycle 1 day 14, low-dose arm).
For O=C(N[C@H](Cc1c[nH]c2ccccc12)C(=O)Nc1ccncc1)c1ccc(-c2ccc(F)c(Cl)c2)cc1F, the concentration was 3400 nM (Swiss Webster mouse, female, muscle; oral, 50 mg/kg, 2 h, 20% Kolliphor vehicle).
O=C(c1nc2n(n1)[C@H](c1ccccc1)C[C@@H]2F)C1CC1 has a renal clearance of 0.113 to 0.382 mL/min (human; 25 mg single dose).
CNCc1ccc(-c2[nH]c3cc(F)cc4c3c2CCNC4=O)cc1: “patients with adverse event” 0% (item: headache; human patients; oral, 600 mg twice daily, grade 5).
CCCCOC(=O)N1CCN(C(=O)[C@H](CP(=O)(O)O)NC(=O)c2cc(N3CC[C@H](OC)C3)nc(-c3ccccc3)n2)CC1 — result for “change from baseline”: -0.5 ± 5.4 U/L (item: alkaline phosphatase; human, serum; 16 mg, 24 h post-dose).
CC(C)(Sc1ccncc1-c1ccc(C#N)c2ccccc12)C(=O)O: “amount excreted in urine (0-24 h)” 153 µg (human, urine; oral, 10 mg, together with: febuxostat 40 mg).
COCc1cc(C(=O)Nc2cc([C@H]3CC[C@@H](OC(=O)NC(C)C)C3)[nH]n2)n(C)n1 gave an AUC(0-24h) of 10.6 µM·h (OVCAR-3 xenograft, NOD/SCID gamma mice, plasma; oral, 75 twice daily, tumour growth inhibition study).
COc1cc(C(=O)NC2CCN(C)CC2)c(F)cc1Nc1ncc(C(F)(F)F)c(Oc2cccc3c2C(=O)N(C)C3)n1: “dose-normalised Cmax at steady state” 16.9 nmol/L per mg (human patients, plasma; oral, 300 mg once daily repeated, geometric mean).
Cc1cc(NC2CCN(C(=O)OC3CCN(C(=O)/C=C/CN(C)C)C3)CC2)n2ncc(C(C)C)c2n1 (stereo not drawn): “patients with adverse event” 7% (Phase I dose escalation CTCAE v4.0, item: pain in extremity; patients with advanced solid tumours; dose not given, QD dosing any grade).
For CN[C@@H]1COc2c(S(=O)(=O)NC(=O)Nc3c4c(cc5c3CCC5)CCC4)cnn2C1, the renal clearance was 8.32 mL/min (human, high-fat meal, urine; oral, 600 mg, 48 h).
For C[Si]1(C)O[Si](C)(C)O[Si](C)(C)O[Si](C)(C)O[Si](C)(C)O1, “entropy of phase change” read 0.386 kJ/(mol·K) (1-octanol/water; concentration not given).
COc1ccc(-c2c(-c3ccc(C#N)c(F)c3)nc(N3CCC(N)CC3)n(C)c2=O)cc1F: “discontinuation due to AE” 6% (human patients; oral, dose not given, dose escalation).
For Cc1ccc(Sc2ccccc2N2CCNCC2)c(C)c1, “participants with TEAE” read 0% (item: postural dizziness; healthy adult women; oral, 5 mg daily, 12 days).
Cc1cc(-c2nnc(N)nc2-c2ccc(F)cc2)cc(Cl)n1: “incidence of treatment-related AE” 21.1% (item: diarrhea, any grade; IO-naive patients with other tumours; oral, 100 mg).
For C=CC(=O)NC1CCN(c2ncc3ncnc(Nc4ccc(Oc5ccc6c(c5)ncn6C)c(C)c4)c3n2)CC1, “participants with fatigue” read 6.3% (human, male; oral, 240 mg, treatment-related adverse event).
With CNc1ccc(-c2nc3ccc(O)cc3s2)cc1 [carbon-11 labelled] the SUV was 3.88 ± 0.803 (ex vivo biodistribution; B6SJL mouse, normal, kidneys; intravenous, 30 min).
CC(C)C[C@H](NC(=O)[C@H](CC(C)C)NC(=O)[C@H](Cc1c[nH]c2ccccc12)NC(=O)[C@H](CCC(=O)O)NC(=O)[C@@H](NC(=O)[C@H](Cc1ccccc1)NC(=O)[C@H](CCC(=O)O)NC(=O)[C@H](CCCCNC(=O)COCCOCCNC(=O)COCCOCCNC(=O)CC[C@H](NC(=O)CCCCCCCCCCCCCCCCCCC(=O)O)C(=O)O)NC(=O)[C@H](C)NC(=O)[C@H](CCCCN)NC(=O)[C@H](CCCCN)NC(=O)[C@H](CCC(=O)O)NC(=O)[C@H](CC(=O)O)NC(=O)[C@H](CC(C)C)NC(=O)[C@H](Cc1ccc(O)cc1)NC(=O)[C@H](CCCCN)NC(=O)[C@H](CO)NC(=O)[C@H](Cc1ccc(O)cc1)NC(=O)[C@H](CC(=O)O)NC(=O)[C@H](CO)NC(=O)[C@@H](NC(=O)[C@H](Cc1ccccc1)NC(=O)[C@@H](NC(=O)CNC(=O)[C@H](CCC(N)=O)NC(=O)C(C)(C)NC(=O)[C@@H](N)Cc1c[nH]cn1)[C@@H](C)O)[C@@H](C)O)C(C)C)C(=O)N[C@@H](CCC(=O)O)C(=O)NCC(=O)NCC(=O)N1CCC[C@H]1C(=O)N[C@@H](CO)C(=O)N[C@@H](CO)C(=O)NCC(N)=O has a Vss/F of 6.4 L (human, plasma; subcutaneous, 16 mg weekly, week 20).
With O=C(c1cccnc1-c1ccncc1)N1CCC(O)(Cc2ccccc2)CC1 the Cmax/dose was 2.04 ng/mL/mg (healthy Japanese adults, plasma; oral, 100 mg twice daily, day 7).
For FC(F)(F)c1ccc(CNc2ccc(Cc3c[nH]c4ncc(Cl)cc34)cn2)cn1, “treatment-related adverse events” read 20% (item: periorbital oedema; human, advanced solid tumours, all patients; oral, 1000 mg/day, any grade).
C[C@@H](Oc1ccc(S(C)(=O)=O)cc1C(=O)N1C[C@@H]2C[C@]2(c2cc(C(F)(F)F)on2)C1)C(F)(F)F: “renal clearance at steady state” 5.75 mL/min (young healthy humans, plasma and urine; oral, 75 mg, 0 to 24 h, multiple dosing once daily).
COC(=O)C1=CO[C@@H](O[C@@H]2O[C@H](CO)[C@@H](O)[C@H](O)[C@H]2O)[C@@H]2C(CO)=CC[C@H]12 has an accuracy of 102% (post-procedure stability; rat plasma; 8 ng/mL, 3 h, room temperature).
For CCc1nc(C(N)=O)c(Nc2ccc(N3CCC(N4CCN(C)CC4)CC3)c(OC)c2)nc1NC1CCOCC1, “autosampler stability accuracy” read 98.5% (processed mouse plasma; 425 ng/mL, 24 h, 4 °C).
For O=C(Cc1ccc2ccccc2c1)Nc1cc(C2CCC2)[nH]n1, the accuracy was 100% (mouse plasma; 375 ng/mL, -80 °C, freeze-thaw stability, together with: 3 freeze-thaw cycles).
Under “total testosterone level”, N#Cc1ccc2c(c1)[C@H]1CCCN(C(=O)c3ccc4[nH]cnc4c3)[C@H]1C2 is recorded as 0.8 nmol/L (human females; 160 mg, end of trial).
Cn1cc(-c2cn3nccc3c(-c3cnn([C@]4(CC#N)C[C@@H](C#N)C4)c3)n2)cn1: “amount excreted unchanged in urine” 3.1 mg (human, urine; oral, 400 mg once daily, day 10, dosing interval geometric mean).
CCCC(CCC)C(=O)Oc1cccc(C(O)CCN)c1.O=CO (stereo not drawn): “ERG, scotopic, rod b-wave” 37.5 µV and 28.7 µV and 39.1 µV and 46.4 µV and 27.8 µV and 38.8 µV (Abca4-/-Rdh8-/- mice, photic damage; oral, 20 mg/kg, 7 days, flash intensity 0.002).
O=C(Nc1nc2cccc(-c3ccc(CN4CCS(=O)(=O)CC4)cc3)n2n1)C1CC1 — result for “treatment-emergent adverse events”: 5.9% (item: hypertension; human rheumatoid arthritis patients; oral, 30 mg once daily, 4 weeks, regardless of relatedness).
c1ccc2cc3ccccc3cc2c1 — result for “literature range of log K”: 3.82 to 4.5 log units (PDMS-water partitioning; PAH compilation).
C=CC(=O)Nc1cc(Nc2nccc(-c3cn(C)c4ccccc34)n2)c(OC)cc1N(C)CCN(C)C: “AUC at steady state” 2.35 to 8.87 µM·h (human patients, plasma; dose not given, Q1 exposure quartile, with chemotherapy).
Under “treatment-related adverse events”, C=CCN1CC(=O)N2[C@@H](Cc3ccc(O)cc3F)C(=O)N(Cc3cccc(N4CC(N5CCN(CC)CC5)C4)n3)C[C@@H]2N1C(=O)NCc1ccccc1 is recorded as 0% (item: Vomiting; advanced solid tumour patients; oral, 120 mg twice daily, expansion part, grade ≥3).
NC1(C(=O)N[C@@H](CCO)c2ccc(Cl)cc2)CCN(c2nc[nH]c3nccc2-3)CC1 — result for “incidence of lower abdominal pain”: 0% (metastatic CRPC patients; 320 mg b.i.d., any grade, treatment-related, together with: enzalutamide 160 mg daily).
CN(C(=O)n1cnc(-c2cccnc2)c1)[C@H]1CC[C@H](O)CC1 gave a tissue concentration of 16.8 ± 1 ng/g (rat, cortex; oral, 10 mg/kg daily for 5 days, 24 h).
For COc1ccc2nc([S@@+]([O-])Cc3ncc(C)c(OC)c3C)[nH]c2c1, the AUC was 715 ng·h/mL (human, dried blood spots; oral, 10 mg omeprazole, together with: voriconazole).
For Cc1ccc([C@@H]2O[C@H](CO)[C@@H](O)[C@H](O)[C@H]2O)cc1Cc1ccc(-c2ccc(F)cc2)s1, “urinary sodium excretion change” read -57.6 mEq (Japanese type 2 diabetes patients; 25 mg, day 17, 24 h urine collection; baseline: baseline).
For O=c1c(O)c(-c2ccccc2)oc2cc3ccccc3cc12, “CO release quantum yield” read about 0.6% (DMSO).
The accuracy of C=C[C@@](C)(/C=C/c1ccc(O)cc1)CCC=C(C)C is reported as 101% (rat plasma; 8 ng/mL, 2 weeks, -70 °C, post-preparative stability).
O=C(/C=C/CCc1ccc(O)cc1)/C=C/c1ccc(O)cc1 has a body weight of 19.4 ± 1.46 g (nude mouse MCF7 xenograft; 10 mg/kg, day 2).
CNCCOC12CC3(C)CC(C)(CC(Cn4ncc(-c5ccc(N6CCc7cccc(C(=O)Nc8nc9ccccc9s8)c7C6)nc5C(=O)O)c4C)(C3)C1)C2: “systemic vascular resistance change” 155% (anaesthetised male beagle dogs; intravenous bolus, 0.03 mg/kg, 135 min; baseline: baseline).
The accuracy of O=C(O)C1=CO[C@@H](O[C@@H]2O[C@H](CO)[C@@H](O)[C@H](O)[C@H]2O)[C@@H]2C(CO)=CC[C@H]12 is reported as 93% (rat plasma; 1000 ng/mL, 2 weeks, -70 °C, post-preparative stability).
Under “ER dose fraction absorbed zero-order”, CC[C@@H]1CN(C(=O)NCC(F)(F)F)C[C@@H]1c1cnc2cnc3[nH]ccc3n12 is recorded as 74.5% (population PK modelling; human; oral, extended-release formulation, outliers excluded).
For CNC(=O)c1ccc(-c2cnc3ncc(Cc4ccc5ncccc5c4)n3n2)cc1F, “abdominal pain incidence” read 6% (other cancer patients; oral, 600 mg twice daily, all grades RP2D expansion).
O=C(O)CCC(=O)O.[2H]C([2H])([2H])Oc1cc(C)c2[nH]ccc2c1CN1CC[C@@H](C2CC2)C[C@H]1c1ccc(C(=O)O)cc1 — result for “subjects with elevated bilirubin TEAE”: 0% (multiple ascending dose; healthy Chinese subjects; 125 mg twice daily).
Under “literature range of log K”, c1ccc2cc3c(ccc4ccccc43)cc2c1 is recorded as 4.59 to 5.66 log units (PDMS-water partitioning; PAH compilation).
Cl.[2H]C([2H])([2H])CC(=O)c1cnc(NC(=O)C2CC2)cc1Nc1cccc(-c2ncn(C([2H])([2H])[2H])n2)c1OC gave an AUC(0-tau) of 914 ng·h/mL (geometric mean; human; oral, 10 mg once daily, day 7, fasted, liquid, multiple dose).
The Cmax of C=CCn1c(=O)c2cnc(Nc3ccc(N4CCN(C)CC4)cc3)nc2n1-c1cccc(C(C)(C)O)n1 is reported as 660 nM (human; oral, 125 mg twice daily, cycle 1 day 17, together with: durvalumab 1500 mg IV; geometric mean).
N#Cc1ccc2c(c1)[C@H]1CCCN(C(=O)c3ccc4[nH]cnc4c3)[C@H]1C2: “pre-dose plasma concentration” 1910 nmol/L (human, plasma; 240 mg once daily, day 14).
For CCc1cc(C(=O)NC)c2nccc(N3CCc4c(cc(Cn5ccnc5)cc4-c4cn(C)nc4C(F)(F)F)C3=O)c2c1, “serum HDL level” read 1.3 ± 0.05 mmol/L (Sprague Dawley rats; oral, 50 mg/kg once daily, 7 days).
For CCOC(=O)[C@H](CCc1ccccc1)N[C@@H](C)C(=O)N1[C@H](C(=O)O)C[C@H]2CCCC[C@@H]21, the autosampler stability was 95.3 ± 13.9% (processed human plasma; 300 pg/mL, 48 h, 4 °C; baseline: nominal).
For CC[C@H](C)[C@H](NC(=O)CN)C(=O)N[C@@H](C)C(=O)N[C@@H](CC(=O)O)C(=O)N[C@@H](C)C(=O)N[C@H](C(=O)N[C@@H](CCCCN)C(=O)N[C@@H](C)C(=O)N[C@H](C(=O)N[C@@H](C)C(=O)N[C@@H](CCCCN)C(=O)N[C@@H](C)C(=O)N[C@@H](CC(C)C)C(=O)NCC(N)=O)[C@@H](C)CC)[C@@H](C)CC, the helix content was 2% (circular dichroism; 10 mM SDS; 100 µM).
Cc1c(-c2ccc(N3CCc4cccc(C(=O)Nc5nc6ccccc6s5)c4C3)nc2C(=O)O)cnn1CC12CC3(C)CC(C)(C1)CC(OCCNCC[C@H](O)CO)(C3)C2 — result for “systemic vascular resistance change”: -8% (anaesthetised male beagle dogs; intravenous infusion, 0.3 mg/kg/min, 105 min; baseline: vehicle).
Under “subjects with adverse event”, CC(C)(C(=O)N1CCOc2c(C#N)cncc2C1)C(F)F is recorded as 0% (item: Psychiatric disorders; human; oral, 20 mg once daily, 14 days, multiple ascending dose).
For CCN1/C(=C/C(C)=O)Sc2ccc(F)cc21, “systolic blood pressure change” read 96.4 ± 4.8% (cynomolgus monkey; oral, 30 mg/kg, 1 h post-dose; baseline: pre-dose).
For C[C@@H](N)C1CCN(S(=O)(=O)c2cccc3cnccc23)CC1, “participants with headache” read 16.7% (healthy volunteers; 250 mg, fasted).
